Experimental data pooled from the literature.
Lines come from different studies, so protocols differ. Values joined by “and” are separate records of one study, mostly repeats; a detail may differ. Numbers after ± are the reported error. Values after ≈ are worked out from the molar mass of the structure shown.
Organism: Escherichia coli

[Cl][Fe]([Cl])[Cl]  MIC50 (24 h, 37 °C): > 1600 µM
N[C@@H](CS)C(=O)O  EC50 (chemotaxis pathway, FRET; MG1655): 4.6 µM
C=C1C(=O)O[C@@H]2[C@H]3O[C@]3(C)CC/C=C(\C)CC[C@@H]12  remaining growth (100 µM, 6 h, unit not given; relative to: untreated): 0.933
N=C(N)c1ccc(OCCCCCCCCOc2ccc(C(=N)N)cc2)cc1  MIC in combination (BW25113; concentration not given, lowest-FICI combination, added: erythromycin): 6.25 mg/L
CC(=O)Oc1ccc(-c2c(C(N)=O)c(N)n(N)c(=O)c2C#N)cc1  viable count (time-kill; 1 x MIC, 120 min): 0 log CFU/mL
COC[C@H]1O[C@@H]2O[C@@H]3[C@@H](OC)[C@@H](OC)[C@@H](O[C@@H]4[C@@H](OC)[C@@H](OC)[C@@H](O[C@@H]5[C@@H](OC)[C@@H](OC)[C@@H](O[C@@H]6[C@@H](OC)[C@@H](OC)[C@@H](O[C@@H]7[C@@H](OC)[C@@H](OC)[C@@H](O[C@@H]1[C@@H](OC)[C@H]2OC)O[C@@H]7COC)O[C@@H]6COC)O[C@@H]5COC)O[C@@H]4COC)O[C@@H]3COC  bioluminescence (LuxR reporter, agonist; DH5α sensor strain; 40 µM): 896 ± 46 RLU
CC(C)Oc1c(NC(=O)c2ccc(NC(=O)[C@H](CC(N)=O)NC(=O)c3ccc(NC(=O)c4ccc(C#N)cc4)cc3)cc2)ccc(C(=O)Nc2ccc(C(=O)O)cc2)c1O  bacterial load reduction below stasis (ATCC 25922, neutropenic mouse thigh infection; iv, 20 mg/kg/day): 1.52 log10 CFU/g
N=C(N)c1cccc(OCCCCCOc2cccc(C(=N)N)c2)c1  MIC in combination (BW25113; concentration not given, lowest-FICI combination, added: erythromycin): 100 mg/L
Cc1c(CN(C)C(=O)/C=C/c2cnc3c(c2)CC(NC(=O)OC(C)(C)C)C(=O)N3)oc2ccccc12 (centres unmarked)  MIC (broth microdilution; AR-0162): > 32 mg/L
NCC[C@H](O)C(=O)N[C@@H]1C[C@H](N)[C@@H](O[C@H]2O[C@H](CN)[C@@H](O)[C@H](O)[C@H]2O)[C@H](O)[C@H]1O[C@H]1O[C@H](CO)[C@@H](O)[C@H](N)[C@H]1O  inhibition zone diameter (CGMCC 1.9; concentration not given, 18 h, 37 °C): 24.5 mm
C#CCCCC(=O)NCC  inhibition (LuxR reporter, antagonist; DH5α sensor strain; 4 µM, added: OHHL 200 nM): 5 ± 14%
NC(=O)C[C@H](N)C(=O)O  EC50 (chemotactic response, attractant, FRET): 0.9 µM
N=C(N)c1ccc(OCc2ccc(-c3ccccc3)cc2COc2ccc(C(=N)N)cc2)cc1  FICI (checkerboard; mcr-2 polymyxin-resistant; unit not given, added: rifampicin; lower = stronger synergy): 0.094
C[C@@H](O)[C@H](N)C(=O)O  EC50 (chemotaxis pathway activity, FRET; MG1655): > 1000 µM
CNC(C)C1CCC(N)C(OC2C(N)CC(N)C(OC3OCC(C)(O)C(NC)C3O)C2O)O1 (centres unmarked)  MIC fold shift (ATCC 25922; relative to: 5% CO2 over ambient air): 4
N[C@@H](CC(=O)O)C(=O)O  EC50 (chemotactic response, attractant, FRET): 0.5 µM
N=C(N)c1ccc(/N=N/Nc2ccc(C(=N)N)cc2)cc1  MIC90 (bacterial growth, inhibitor, OD600; E23): 35.6 µM (≈ 10 µg/mL)
N#Cc1c(-c2ccc(OCc3ccccc3)cc2)c(C(N)=O)c(N)n(N)c1=O  viable count (time-kill; 1 x MIC, 15 min): 5.83 log CFU/mL
N=C(N)c1ccc(OCc2ccc3ccc(COc4ccc(C(=N)N)cc4)cc3c2)cc1  MIC in combination (BW25113; concentration not given, lowest-FICI combination, added: erythromycin): 25 mg/L
Cc1ccc(C[C@H](NC(=O)[C@@H](Cc2ccccc2)NC(=O)[C@@H](Cc2c[nH]c3ccccc23)NC(=O)[C@@H](N)CCCN)C(=O)N[C@H](Cc2ccccc2)C(=O)N[C@H](CCCNC(=N)N)C(N)=O)cc1  IC50 (bacterial growth; ATCC 35218): 4.86 mg/L (≈ 5.23 µM)
CC1(C)S[C@@H]2[C@H](NC(=O)[C@H](N)c3ccccc3)C(=O)N2[C@H]1C(=O)O  MBC (ATCC 10546): 2 mg/L (≈ 5.72 µM)
NC[C@H]1O[C@H](O[C@H]2[C@H](O)[C@@H](O[C@H]3O[C@H](CO)[C@@H](O)[C@H](N)[C@H]3O)[C@H](N)C[C@@H]2N)[C@H](O)[C@@H](O)[C@@H]1O  growth inhibition (concentration not given, 0.2 mg/mL): 82%
CC1(C)S[C@@H]2[C@H](NC(=O)[C@H](N)c3ccc(O)cc3)C(=O)N2[C@H]1C(=O)O  inhibition zone diameter (CGMCC 1.9; concentration not given, 18 h, 37 °C): 0 mm
CC1(C)S[C@@H]2[C@H](NC(=O)[C@H](N)c3ccc(O)cc3)C(=O)N2[C@H]1C(=O)O  zone of inhibition (MTCC 405; 10 µg/mL): 26 mm
O=C(N[C@H](CO)[C@H](O)c1ccc([N+](=O)[O-])cc1)C(Cl)Cl  MIC fold shift (ATCC 25922; relative to: 5% CO2 over ambient air): 1
N=C(N)c1ccc(OCCCOc2ccc(C(=N)N)cc2)cc1  MIC in combination (BW25113; concentration not given, lowest-FICI combination, added: erythromycin): 50 mg/L
COC(=O)[C@H]1[C@H]2C[C@@H]3c4[nH]c5cc(OC)ccc5c4CCN3C[C@H]2C[C@@H](OC(=O)c2cc(OC)c(OC)c(OC)c2)[C@@H]1OC  fold enhancement (tetracycline MIC, checkerboard; tetracycline-resistant (pBR322); 64 µM, added: tetracycline; relative to: MIC alone over combination): 2 fold
Nc1ccc2c(c1)B(O)OC2  post-antibiotic effect (ATCC 25922; 8xMIC, 1 h): 0.78 ± 0.09 h
C[C@H](N)C(=O)O  EC50 (chemotactic response, attractant, FRET): 75.5 µM
N=C(N)c1ccc(OCCC(CCOc2ccc(C(=N)N)cc2)c2ccccc2)cc1 (centres unmarked)  FICI (checkerboard; mcr-1 polymyxin-resistant; unit not given, added: rifampicin; lower = stronger synergy): ≤ 0.063
CCn1cc(C(=O)O)c(=O)c2cc(F)c(N3CCNCC3)cc21  inhibition zone diameter (CGMCC 1.9; concentration not given, 18 h, 37 °C): 11 mm
N=C(N)c1ccc(OCc2ccc(COc3ccc(C(=N)N)cc3)cc2)cc1  MIC in combination (BW25113; concentration not given, lowest-FICI combination, added: erythromycin): 100 mg/L
C[C@@H](O)[C@H]1C(=O)N2C(C(=O)O)=C(SCCN=CN)C[C@H]12  bacterial load (2904, female ICR mice, peritonitis, lung; dose not given, 168 h): 3.79 log CFU and 3.86 log CFU and 4.44 log CFU and 4.25 log CFU and 5.12 log CFU and 4.18 log CFU
N=C(N)c1ccc(OCCCCCCCCCOc2ccc(C(=N)N)cc2)cc1  MIC in combination (BW25113; concentration not given, lowest-FICI combination, added: erythromycin): 3.13 mg/L
CCC[C@@H]1C[C@@H](C(=O)N[C@@H]([C@H]2O[C@H](SC)[C@H](O)[C@@H](O)[C@H]2O)[C@H](C)Cl)N(C)C1  inhibition zone diameter (CGMCC 1.9; concentration not given, 18 h, 37 °C): 0 mm
CCCCCCCNC1=C(n2cncn2)C(=O)c2ccccc2C1=O  zone of inhibition (MTCC 405; 10 µg/mL): 11 mm
OC[C@H]1O[C@@H]2O[C@H]3[C@H](O)[C@@H](O)[C@@H](O[C@H]4[C@H](O)[C@@H](O)[C@@H](O[C@H]5[C@H](O)[C@@H](O)[C@@H](O[C@H]6[C@H](O)[C@@H](O)[C@@H](O[C@H]7[C@H](O)[C@@H](O)[C@@H](O[C@H]8[C@H](O)[C@@H](O)[C@@H](O[C@H]1[C@H](O)[C@H]2O)O[C@@H]8CO)O[C@@H]7CO)O[C@@H]6CO)O[C@@H]5CO)O[C@@H]4CO)O[C@@H]3CO  inhibition (LuxR reporter, antagonist; DH5α sensor strain; 10 µM, added: OHHL 200 nM): -5 ± 1%
CC1(C)S[C@@H]2[C@H](NC(=O)[C@H](N)c3ccccc3)C(=O)N2[C@H]1C(=O)O  inhibition zone diameter (CGMCC 1.9; concentration not given, 18 h, 37 °C): 9 mm

Repeated from above:
O=C(N[C@H](CO)[C@H](O)c1ccc([N+](=O)[O-])cc1)C(Cl)Cl  MIC fold shift (ATCC 25922; relative to: 5% CO2 over ambient air): 1
CNC(C)C1CCC(N)C(OC2C(N)CC(N)C(OC3OCC(C)(O)C(NC)C3O)C2O)O1 (centres unmarked)  MIC fold shift (ATCC 25922; relative to: 5% CO2 over ambient air): 4
N=C(N)c1ccc(OCCCOc2ccc(C(=N)N)cc2)cc1  MIC in combination (BW25113; concentration not given, lowest-FICI combination, added: erythromycin): 50 mg/L
CC1(C)S[C@@H]2[C@H](NC(=O)[C@H](N)c3ccc(O)cc3)C(=O)N2[C@H]1C(=O)O  zone of inhibition (MTCC 405; 10 µg/mL): 26 mm
